Results of several laboratories.
Lines come from different studies, so protocols differ.
Chain of UniProt Q06187 (whole entry, looked up): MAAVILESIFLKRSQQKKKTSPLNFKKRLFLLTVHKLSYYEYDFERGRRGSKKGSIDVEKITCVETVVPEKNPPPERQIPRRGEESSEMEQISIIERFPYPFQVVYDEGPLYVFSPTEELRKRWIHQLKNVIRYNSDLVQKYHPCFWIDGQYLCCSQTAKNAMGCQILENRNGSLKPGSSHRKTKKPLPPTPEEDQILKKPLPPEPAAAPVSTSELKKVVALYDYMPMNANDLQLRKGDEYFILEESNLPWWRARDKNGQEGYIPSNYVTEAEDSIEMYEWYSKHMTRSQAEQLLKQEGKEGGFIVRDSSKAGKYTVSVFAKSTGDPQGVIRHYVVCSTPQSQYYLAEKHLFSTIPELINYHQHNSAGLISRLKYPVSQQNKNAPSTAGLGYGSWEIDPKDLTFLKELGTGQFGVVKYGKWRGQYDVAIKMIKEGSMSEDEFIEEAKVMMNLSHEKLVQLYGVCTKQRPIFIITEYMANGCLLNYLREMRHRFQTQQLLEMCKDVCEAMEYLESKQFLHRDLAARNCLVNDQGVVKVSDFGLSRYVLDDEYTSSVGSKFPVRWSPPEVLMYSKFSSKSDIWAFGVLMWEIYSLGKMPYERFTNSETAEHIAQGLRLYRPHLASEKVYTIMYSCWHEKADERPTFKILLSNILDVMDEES
Chain of UniProt Q96RG2 (whole entry, looked up): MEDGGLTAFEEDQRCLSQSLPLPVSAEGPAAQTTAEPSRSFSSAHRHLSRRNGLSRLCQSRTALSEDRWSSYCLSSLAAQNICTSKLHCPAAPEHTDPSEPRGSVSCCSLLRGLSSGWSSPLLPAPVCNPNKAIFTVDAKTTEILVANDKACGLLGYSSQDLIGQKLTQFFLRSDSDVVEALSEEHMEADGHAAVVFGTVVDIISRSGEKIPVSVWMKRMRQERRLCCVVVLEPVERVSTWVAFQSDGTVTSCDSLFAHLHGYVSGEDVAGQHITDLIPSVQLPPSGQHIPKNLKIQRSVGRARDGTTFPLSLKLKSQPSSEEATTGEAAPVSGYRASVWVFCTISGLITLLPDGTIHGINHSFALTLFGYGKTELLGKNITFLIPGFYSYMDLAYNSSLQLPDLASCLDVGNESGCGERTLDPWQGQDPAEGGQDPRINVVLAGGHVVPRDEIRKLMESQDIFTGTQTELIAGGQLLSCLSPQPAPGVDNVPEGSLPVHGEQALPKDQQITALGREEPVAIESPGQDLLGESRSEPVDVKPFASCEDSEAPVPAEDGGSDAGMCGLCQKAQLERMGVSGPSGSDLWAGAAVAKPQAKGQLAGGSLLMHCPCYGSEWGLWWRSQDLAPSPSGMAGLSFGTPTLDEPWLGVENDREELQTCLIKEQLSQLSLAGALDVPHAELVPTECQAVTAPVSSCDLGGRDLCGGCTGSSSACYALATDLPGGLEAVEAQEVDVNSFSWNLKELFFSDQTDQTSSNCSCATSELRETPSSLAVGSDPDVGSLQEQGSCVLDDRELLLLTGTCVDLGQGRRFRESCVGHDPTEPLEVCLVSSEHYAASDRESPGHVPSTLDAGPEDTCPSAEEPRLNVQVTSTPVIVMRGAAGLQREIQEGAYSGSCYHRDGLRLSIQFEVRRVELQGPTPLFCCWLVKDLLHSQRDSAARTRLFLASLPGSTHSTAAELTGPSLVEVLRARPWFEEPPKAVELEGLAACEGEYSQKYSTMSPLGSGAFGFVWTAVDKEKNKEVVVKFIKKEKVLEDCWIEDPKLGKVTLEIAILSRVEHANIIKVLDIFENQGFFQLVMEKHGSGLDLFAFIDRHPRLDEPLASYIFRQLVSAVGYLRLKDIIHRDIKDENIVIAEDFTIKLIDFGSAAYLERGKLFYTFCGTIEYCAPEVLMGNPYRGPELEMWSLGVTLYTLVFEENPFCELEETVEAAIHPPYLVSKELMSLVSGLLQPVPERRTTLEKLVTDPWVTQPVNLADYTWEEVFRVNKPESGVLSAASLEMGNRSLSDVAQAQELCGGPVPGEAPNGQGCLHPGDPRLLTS
Chain of UniProt Q96GD4 (whole entry, looked up): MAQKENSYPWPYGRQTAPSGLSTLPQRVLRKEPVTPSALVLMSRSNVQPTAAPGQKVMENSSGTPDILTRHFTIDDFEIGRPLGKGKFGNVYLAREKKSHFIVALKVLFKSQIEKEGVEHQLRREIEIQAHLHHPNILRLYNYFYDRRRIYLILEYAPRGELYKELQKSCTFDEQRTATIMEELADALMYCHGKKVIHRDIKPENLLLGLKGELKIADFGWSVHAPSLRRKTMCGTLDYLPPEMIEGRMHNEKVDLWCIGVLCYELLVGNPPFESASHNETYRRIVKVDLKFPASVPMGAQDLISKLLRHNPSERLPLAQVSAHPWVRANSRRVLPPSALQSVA
Chain of UniProt Q99755 (whole entry, looked up): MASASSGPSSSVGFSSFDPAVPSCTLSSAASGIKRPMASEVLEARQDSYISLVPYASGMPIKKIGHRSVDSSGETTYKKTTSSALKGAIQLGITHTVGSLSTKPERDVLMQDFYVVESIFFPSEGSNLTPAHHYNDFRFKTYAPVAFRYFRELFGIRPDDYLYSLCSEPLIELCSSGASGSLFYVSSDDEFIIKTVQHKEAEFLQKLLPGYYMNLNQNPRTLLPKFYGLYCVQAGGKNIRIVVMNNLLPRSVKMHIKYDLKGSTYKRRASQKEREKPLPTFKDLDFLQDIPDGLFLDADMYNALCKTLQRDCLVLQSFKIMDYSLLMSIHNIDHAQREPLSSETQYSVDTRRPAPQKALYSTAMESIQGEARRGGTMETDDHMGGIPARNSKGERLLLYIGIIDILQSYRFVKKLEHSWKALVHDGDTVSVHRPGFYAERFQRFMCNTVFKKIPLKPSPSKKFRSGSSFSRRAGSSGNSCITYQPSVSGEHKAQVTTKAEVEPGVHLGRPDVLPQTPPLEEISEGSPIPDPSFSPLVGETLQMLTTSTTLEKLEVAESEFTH

| SMILES | target or system | assay | conditions | endpoint | result |
| --- | --- | --- | --- | --- | --- |
| CCCCC(=O)Nc1ncc(-c2ccc3ncn(CCC)c(=O)c3c2)cn1 | HCC827 | cell growth or viability, CCK-8 | 72 h | IC50 | 0.88 µM |
| COc1cccc(-c2cccc(Nc3nccc(NC4CCCCC4)n3)c2)c1 | BJ | cell growth or viability, ATP luminescence | 72 h | EC50 | 12.5 µM |
| O=C(Nc1ccc(-c2ccc3ncn(Cc4ccccc4)c(=O)c3c2)cn1)c1ccco1 | HCC827 | cell growth or viability, CCK-8 | 72 h | IC50 | 5.89 µM |
| Cc1cc([C@@H](C)Nc2ccccc2C(=O)O)c2nc(N3CCC(F)(F)CC3)c(C#N)c(=O)n2c1 | Tyrosine-protein kinase BTK (BTK, Homo sapiens, UniProt Q06187) | binding, competition with immobilised ligand | 10 µM | remaining binding | 95% |
| O=C(Nc1ccc(Oc2nnc(-c3ccc(Cl)cc3)c3ccccc23)cc1)c1ccccc1 | HepG2 | cell growth or viability, MTT | 5 µM | cell death | 97% |
| CCCCn1cnc2ccc(-c3ccc(NC(=O)C4CCCCC4)nc3)cc2c1=O | HCC827 | cell growth or viability, CCK-8 | 72 h | IC50 | 1.41 µM |
| COc1cc(-c2cncc3c2CN(C)Cc2cc(N4CCNCC4)ccc2-3)cc(OC)c1OC | PAS domain-containing serine/threonine-protein kinase (PASK, Homo sapiens, UniProt Q96RG2) | enzyme activity, inhibitor | 1 µM | remaining activity | 117% |
| c1cc(Nc2nccc(NC3CCCCC3)n2)cc(-c2cnccn2)c1 | BJ | cell growth or viability, ATP luminescence | 72 h | EC50 | > 12 µM |
| CC(=NNC(=O)c1ccncc1)c1ccc(Nc2nnc(-c3ccc(Cl)cc3)c3ccccc23)cc1 | HepG2 | cell growth or viability, MTT | 5 µM | cell death | 95.5% |
| C=CC(=O)N1CCC(COCC(=O)N2CCN(c3nc(-c4cnc(N)nc4C(F)F)nc(N4CCOC[C@@H]4C)n3)CC2)CC1 | Phosphatidylinositol 4-phosphate 5-kinase type-1 alpha (PIP5K1A, Homo sapiens, UniProt Q99755) | binding, competition with immobilised ligand | 1 µM | remaining binding | 100% |
| CCC(=CCc1c(O)cc2c(c1O)C(=O)CC(c1ccc(O)cc1)O2)CC (stereo in doubt) | HeLa | cell growth or viability, MTT | 50 µM, 48 h | inhibition | 87.1% |
| c1ccc(Nc2nccc(NC3CCCCC3)n2)cc1 | BJ | cell growth or viability, ATP luminescence | 72 h | EC50 | > 11 µM |
| CNc1ncc2c(/C=C/C(=O)N3CCC(OC)CC3)nn(Cc3cccc(C(F)(F)F)c3)c2n1 | Aurora kinase B (AURKB, Homo sapiens, UniProt Q96GD4) | enzyme activity, inhibitor, radiometric | 1 µM | remaining activity | 81% |

Some of these lines once more:
| SMILES | target or system | assay | conditions | endpoint | result |
| --- | --- | --- | --- | --- | --- |
| CCCCn1cnc2ccc(-c3ccc(NC(=O)C4CCCCC4)nc3)cc2c1=O | HCC827 | cell growth or viability, CCK-8 | 72 h | IC50 | 1.41 µM |
